Measurements collected from several papers.
Parts stem from different laboratories: compare values within a part only.
Chain of UniProt Q9BZL6 (whole entry, looked up): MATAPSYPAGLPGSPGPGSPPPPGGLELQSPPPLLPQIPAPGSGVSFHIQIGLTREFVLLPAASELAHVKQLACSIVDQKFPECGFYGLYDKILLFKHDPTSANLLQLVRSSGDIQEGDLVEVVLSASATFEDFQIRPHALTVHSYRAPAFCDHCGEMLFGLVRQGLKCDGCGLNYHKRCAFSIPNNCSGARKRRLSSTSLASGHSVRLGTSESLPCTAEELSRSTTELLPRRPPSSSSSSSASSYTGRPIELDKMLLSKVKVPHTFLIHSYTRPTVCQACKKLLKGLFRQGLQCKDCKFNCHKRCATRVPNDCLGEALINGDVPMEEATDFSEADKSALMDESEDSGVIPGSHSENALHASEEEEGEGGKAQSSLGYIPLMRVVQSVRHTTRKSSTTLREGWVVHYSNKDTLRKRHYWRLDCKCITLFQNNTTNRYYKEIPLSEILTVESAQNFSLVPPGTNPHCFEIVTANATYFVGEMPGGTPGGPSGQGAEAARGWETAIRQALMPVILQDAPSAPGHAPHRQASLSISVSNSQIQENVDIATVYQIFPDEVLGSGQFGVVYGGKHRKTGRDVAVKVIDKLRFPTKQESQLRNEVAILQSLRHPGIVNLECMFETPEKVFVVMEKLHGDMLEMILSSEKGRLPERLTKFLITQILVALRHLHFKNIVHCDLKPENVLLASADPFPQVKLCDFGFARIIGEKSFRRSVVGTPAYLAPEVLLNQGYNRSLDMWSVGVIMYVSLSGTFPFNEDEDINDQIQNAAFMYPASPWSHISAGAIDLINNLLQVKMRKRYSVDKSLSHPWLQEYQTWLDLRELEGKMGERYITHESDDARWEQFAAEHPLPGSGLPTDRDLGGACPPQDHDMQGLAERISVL
Chain of UniProt P11802 (whole entry, looked up): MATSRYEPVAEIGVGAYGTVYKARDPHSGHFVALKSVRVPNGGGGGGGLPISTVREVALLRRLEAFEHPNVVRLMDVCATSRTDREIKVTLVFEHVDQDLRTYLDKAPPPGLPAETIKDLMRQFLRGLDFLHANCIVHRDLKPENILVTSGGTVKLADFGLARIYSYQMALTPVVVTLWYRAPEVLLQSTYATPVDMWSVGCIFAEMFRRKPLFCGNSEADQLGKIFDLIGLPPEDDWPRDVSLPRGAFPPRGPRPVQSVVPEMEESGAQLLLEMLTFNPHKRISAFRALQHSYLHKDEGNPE
Chain of UniProt Q8N4C8 (whole entry, looked up): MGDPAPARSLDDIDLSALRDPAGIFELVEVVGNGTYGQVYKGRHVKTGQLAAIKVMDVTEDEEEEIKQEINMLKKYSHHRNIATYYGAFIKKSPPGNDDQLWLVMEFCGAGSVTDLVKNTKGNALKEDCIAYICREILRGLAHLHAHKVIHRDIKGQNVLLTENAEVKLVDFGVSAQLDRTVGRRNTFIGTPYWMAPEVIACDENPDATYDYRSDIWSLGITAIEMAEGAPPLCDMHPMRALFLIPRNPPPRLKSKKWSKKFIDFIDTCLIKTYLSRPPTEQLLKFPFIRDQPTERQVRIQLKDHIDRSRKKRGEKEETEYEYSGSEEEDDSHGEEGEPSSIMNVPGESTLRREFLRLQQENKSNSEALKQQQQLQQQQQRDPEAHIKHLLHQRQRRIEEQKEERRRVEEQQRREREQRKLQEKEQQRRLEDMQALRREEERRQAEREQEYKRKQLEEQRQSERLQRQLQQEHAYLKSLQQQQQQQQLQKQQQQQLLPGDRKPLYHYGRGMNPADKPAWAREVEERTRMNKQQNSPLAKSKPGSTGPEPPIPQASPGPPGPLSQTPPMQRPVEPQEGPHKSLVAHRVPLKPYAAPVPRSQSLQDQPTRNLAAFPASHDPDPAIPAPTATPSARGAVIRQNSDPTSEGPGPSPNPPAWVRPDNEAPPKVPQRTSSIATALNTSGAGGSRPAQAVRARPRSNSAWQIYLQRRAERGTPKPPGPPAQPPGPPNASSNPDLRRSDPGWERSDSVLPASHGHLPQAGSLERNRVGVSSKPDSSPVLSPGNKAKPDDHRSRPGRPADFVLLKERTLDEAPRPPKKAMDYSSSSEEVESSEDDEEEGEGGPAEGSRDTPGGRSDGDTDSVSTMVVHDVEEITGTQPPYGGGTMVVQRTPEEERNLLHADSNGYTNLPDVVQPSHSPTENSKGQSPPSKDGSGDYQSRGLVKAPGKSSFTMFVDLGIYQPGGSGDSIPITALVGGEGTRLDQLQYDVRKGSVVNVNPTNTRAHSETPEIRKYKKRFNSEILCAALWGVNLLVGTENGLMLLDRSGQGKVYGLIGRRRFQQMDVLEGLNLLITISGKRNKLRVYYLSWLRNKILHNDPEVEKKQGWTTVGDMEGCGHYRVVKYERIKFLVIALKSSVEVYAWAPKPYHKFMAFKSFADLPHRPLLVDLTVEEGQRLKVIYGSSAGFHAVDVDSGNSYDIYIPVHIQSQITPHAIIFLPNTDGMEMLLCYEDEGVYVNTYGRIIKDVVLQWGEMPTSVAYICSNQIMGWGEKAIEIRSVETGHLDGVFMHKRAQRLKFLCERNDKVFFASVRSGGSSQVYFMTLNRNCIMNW
Chain of UniProt P57058 (whole entry, looked up): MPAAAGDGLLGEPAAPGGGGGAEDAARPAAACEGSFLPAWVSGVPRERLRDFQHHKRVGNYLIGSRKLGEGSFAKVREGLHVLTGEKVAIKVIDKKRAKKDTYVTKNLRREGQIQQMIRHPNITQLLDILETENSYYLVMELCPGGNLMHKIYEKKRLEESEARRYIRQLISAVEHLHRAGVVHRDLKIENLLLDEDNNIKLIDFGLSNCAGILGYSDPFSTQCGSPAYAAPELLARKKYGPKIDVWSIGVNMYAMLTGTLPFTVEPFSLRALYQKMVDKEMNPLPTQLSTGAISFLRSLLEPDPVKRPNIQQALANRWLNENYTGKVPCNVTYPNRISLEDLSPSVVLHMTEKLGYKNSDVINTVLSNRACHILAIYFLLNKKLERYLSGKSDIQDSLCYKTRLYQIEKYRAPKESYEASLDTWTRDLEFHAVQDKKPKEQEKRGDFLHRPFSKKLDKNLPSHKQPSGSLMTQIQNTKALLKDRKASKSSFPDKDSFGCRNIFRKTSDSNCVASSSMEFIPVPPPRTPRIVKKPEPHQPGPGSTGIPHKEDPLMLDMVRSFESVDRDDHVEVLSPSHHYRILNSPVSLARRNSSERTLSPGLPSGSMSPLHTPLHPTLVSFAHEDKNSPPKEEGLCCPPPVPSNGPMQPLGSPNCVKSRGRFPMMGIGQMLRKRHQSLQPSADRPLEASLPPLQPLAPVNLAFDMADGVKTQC
Chain of UniProt P22607 (whole entry, unmodified, looked up): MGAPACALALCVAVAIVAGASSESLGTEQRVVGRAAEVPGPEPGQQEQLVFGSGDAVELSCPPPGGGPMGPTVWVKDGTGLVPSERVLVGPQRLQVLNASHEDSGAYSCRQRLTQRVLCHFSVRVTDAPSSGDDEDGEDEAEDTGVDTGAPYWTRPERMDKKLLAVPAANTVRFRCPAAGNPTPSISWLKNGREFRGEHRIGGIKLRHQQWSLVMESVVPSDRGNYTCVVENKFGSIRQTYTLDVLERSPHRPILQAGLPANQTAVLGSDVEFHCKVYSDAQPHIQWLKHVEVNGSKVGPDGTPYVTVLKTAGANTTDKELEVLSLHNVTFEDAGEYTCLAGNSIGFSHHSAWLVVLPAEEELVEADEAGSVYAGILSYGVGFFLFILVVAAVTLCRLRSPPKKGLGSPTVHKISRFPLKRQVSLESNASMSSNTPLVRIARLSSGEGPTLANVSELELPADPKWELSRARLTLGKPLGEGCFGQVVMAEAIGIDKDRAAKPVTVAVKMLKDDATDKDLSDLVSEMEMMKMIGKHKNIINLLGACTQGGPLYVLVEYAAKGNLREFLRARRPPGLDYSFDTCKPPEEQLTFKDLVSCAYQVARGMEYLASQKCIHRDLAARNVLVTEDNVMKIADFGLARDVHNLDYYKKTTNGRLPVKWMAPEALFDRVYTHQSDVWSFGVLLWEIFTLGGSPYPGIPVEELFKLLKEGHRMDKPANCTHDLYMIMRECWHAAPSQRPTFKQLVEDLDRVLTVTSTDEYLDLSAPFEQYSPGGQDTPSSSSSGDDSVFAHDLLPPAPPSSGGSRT
Chain of UniProt Q8WTQ7 (whole entry, looked up): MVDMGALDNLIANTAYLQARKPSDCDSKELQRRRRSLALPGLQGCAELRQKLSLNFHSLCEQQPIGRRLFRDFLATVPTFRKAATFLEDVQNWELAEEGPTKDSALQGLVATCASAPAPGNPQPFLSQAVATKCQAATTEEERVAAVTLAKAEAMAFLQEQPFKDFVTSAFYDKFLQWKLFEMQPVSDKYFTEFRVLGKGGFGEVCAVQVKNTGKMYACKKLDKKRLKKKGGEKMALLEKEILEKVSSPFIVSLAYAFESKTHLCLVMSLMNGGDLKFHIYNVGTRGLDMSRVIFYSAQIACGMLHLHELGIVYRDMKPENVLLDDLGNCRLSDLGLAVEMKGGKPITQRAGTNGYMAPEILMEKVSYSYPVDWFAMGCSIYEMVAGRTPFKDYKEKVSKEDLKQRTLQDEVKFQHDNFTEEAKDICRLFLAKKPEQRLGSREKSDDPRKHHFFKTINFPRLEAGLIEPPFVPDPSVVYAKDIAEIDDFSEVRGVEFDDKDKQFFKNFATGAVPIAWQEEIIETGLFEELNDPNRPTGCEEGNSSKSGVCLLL

Study 1
SMILES: NS(=O)(=O)c1cc(NC(=O)C2(c3ccccc3Cl)CC2)ccc1Oc1cccc(Cl)c1
Read-out: cell-free assay
Method: competition with immobilised ligand
Concentration: 1 µM
target | remaining binding [%]
Microtubule-associated serine/threonine-protein kinase 1 (MAST1, Homo sapiens, UniProt Q9Y2H9) | 100
Peripheral plasma membrane protein CASK (CASK, Homo sapiens, UniProt O14936) | 89
Fibroblast growth factor receptor 3 (FGFR3, Homo sapiens, UniProt P22607, G697C) | 100
Cyclin-dependent kinase 4, with cyclin D1 (CDK4, Homo sapiens, UniProt P11802) | 95
Mitogen-activated protein kinase kinase kinase 2 (MAP3K2, Homo sapiens, UniProt Q9Y2U5) | 100
Macrophage-stimulating protein receptor (MST1R, Homo sapiens, UniProt Q04912) | 99
High affinity nerve growth factor receptor (NTRK1, Homo sapiens, UniProt P04629) | 100
Testis-specific serine/threonine-protein kinase 3 (TSSK3, Homo sapiens, UniProt Q96PN8) | 100
Serine/threonine-protein kinase WNK2 (WNK2, Homo sapiens, UniProt Q9Y3S1) | 88
Serine/threonine-protein kinase D2 (PRKD2, Homo sapiens, UniProt Q9BZL6) | 87
Misshapen-like kinase 1 (MINK1, Homo sapiens, UniProt Q8N4C8) | 86
Serine/threonine-protein kinase mTOR (MTOR, Homo sapiens, UniProt P42345) | 100
Mitogen-activated protein kinase 14 (MAPK14, Homo sapiens, UniProt Q16539) | 100
Serine/threonine-protein kinase pim-3 (PIM3, Homo sapiens, UniProt Q86V86) | 88
Mitogen-activated protein kinase kinase kinase 9 (MAP3K9, Homo sapiens, UniProt P80192) | 67
Serine/threonine-protein kinase TAO2 (TAOK2, Homo sapiens, UniProt Q9UL54) | 82
Cyclin-dependent kinase 8 (CDK8, Homo sapiens, UniProt P49336) | 91
Rhodopsin kinase GRK7 (GRK7, Homo sapiens, UniProt Q8WTQ7) | 100
Hormonally up-regulated neu tumor-associated kinase (HUNK, Homo sapiens, UniProt P57058) | 75

Study 2
Partner: ARF2 727-859 (Arabidopsis thaliana, UniProt Q94JM3)
Method: two-hybrid
Baseline: out of 4 tests
Direction: higher = firmer interaction
B1: IAA34 (Arabidopsis thaliana, UniProt Q9C5X0); chain MYCSDPPHPLHLVASDKQQKDHKLILSWKKPTMDSDPLGVFPNSPKYHPYYSQTTEFGGVIDLGLSLRTIQHEIYHSSGQRYCSNEGYRRKWGYVKVTMDGLVVGRKVCVLDHGSYSTLAHQLEDMFGMQSVSGLRLFQMESEFCLVYRDEEGLWRNAGDVPWNEFIESVERLRITRRNDAVLPF
B2: ARF1 538-665 (Arabidopsis thaliana, UniProt Q8L7G0); chain SRQIRSCTKVHMQGSAVGRAIDLTRSECYEDLFKKLEEMFDIKGELLESTKKWQVVYTDDEDDMMMVGDDPWNEFCGMVRKIFIYTPEEVKKLSPKNKLAVNARMQLKADAEENGNTEGRSSSMAGSR
B3: IAA33 (Arabidopsis thaliana, UniProt Q9FKM7); chain MNSFEPQSQDSLQRRFHQDNSTTQQPRDTTTPFIPKPASKNHNNSNSSSGAAGRSFQGFGLNVEDDLVSSVVPPVTVVLEGRSICQRISLDKHGSYQSLASALRQMFVDGADSTDDLDLSNAIPGHLIAYEDMENDLLLAGDLTWKDFVRVAKRIRILPVKGNTRQVKRNE
Residues (chain): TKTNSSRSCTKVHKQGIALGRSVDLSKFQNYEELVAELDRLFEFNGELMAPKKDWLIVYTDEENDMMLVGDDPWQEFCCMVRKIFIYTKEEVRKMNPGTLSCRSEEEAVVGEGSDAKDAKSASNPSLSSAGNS
Molecule | positive tests
B1 (IAA34) | 3
B2 (ARF1 538-665) | 0
B3 (IAA33) | 1

Study 3
Target: RING finger protein unkempt homolog, zinc fingers 1-6, GST-SBP tag (UNK, Homo sapiens, UniProt Q9C0B0, residues 30-357)
Chain of UniProt Q9C0B0 (30-357, looked up): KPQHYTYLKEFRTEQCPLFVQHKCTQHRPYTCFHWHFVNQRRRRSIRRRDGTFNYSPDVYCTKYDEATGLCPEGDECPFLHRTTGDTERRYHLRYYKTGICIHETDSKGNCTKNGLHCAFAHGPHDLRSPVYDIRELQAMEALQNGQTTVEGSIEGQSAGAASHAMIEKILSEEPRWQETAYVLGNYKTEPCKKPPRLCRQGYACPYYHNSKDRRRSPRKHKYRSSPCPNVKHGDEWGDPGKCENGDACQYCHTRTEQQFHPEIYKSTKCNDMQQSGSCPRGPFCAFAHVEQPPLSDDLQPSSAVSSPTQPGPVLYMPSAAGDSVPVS
Method: RNA Bind-n-Seq
Molecule type: RNA
Matrix: in vitro
Concentration: not given
Notes: RNA with constant flanks, ends assumed
Baseline: input RNA pool
Direction: higher = stronger binding
Shared flanks, not repeated: GGGAGUUCUACAGUCCGACGAUC … CAACAGAGGAUUGAGCAUCA
Sequence | bound/input enrichment [ratio]
CCUCUUUUCCAGUCCCAUGUUGAAGAUCUUUACGUAGAAGGGCUUCCUGAAGGGAUUCCUUUCCGAAGGCCGUCGACGUACGGCAUUCCUCGCCUUGAGAGGAUAUUGCUGGCGAAGGAA | 0.13
AUUUUGUAAAUACUGUAUACCAUGUAUUAUGUGUAUAUUGUUCAUACUUGAGAGGUAUAUUACCGUUUUGUUAUGAAAGUAUGUAUUUUGCCCUGCCCACAUUGCAGGUGUUUUGUAUAU | 0.346
CCCGUGUAAACAUUCUUUUUCCAAGGGGGAAAAUGGUGUUAUUUACAUGAAUCGUGAUCAAACCGCCUCUAAAAACAGUUUUCUAAGCAGGAGGCUCAGUGGAACUCCGAGCUCCGCUCC | 0.17
GGUGGCUCUUCUCUGCUCAUCGAGGCAUUAUCUAACAGUAGCCACAAGUGCCAAGCAGACAUCCGACAUAUCCUGAAUAAGAAUGGAGGAGUGAUGGCUGUAGGAGCUCGUCACUCUUUU | 0.122
UGGAUGAAUUUUUAGUGAAAAAUGAUCCCUGCCGAGCACGAGGUAGAACUAACAUUGAACUCCGAGAGAAAUUCAUCCUACCAGAGGGAGCAUCCCAGGGAAUGACCCCCUUCCGCUCAC | 0.257
AUUCAUUUUUAAUUUUAAUUUUAUUUUAUACAAUGUGUAGACAGUUCCCUGUUCUCUGCAUUCCGAAGUAUACACAAUAUAAAUCUGUUAAUUCUGUAAGUAAUUUUUAUAAUUAUGAUG | 4.69
AGUCGAGGCGCAACAAGACCCAACGGGCCAAAUACGGGAAAUAAAAUAUGCCAGUUCAAACCCGUACUUCUGGGAGAGUCCGCUGUUGGCAAAUCAAGCCUAGUGCUUCGUUUUGUGAAA | 0.164
GAUUAUUUAUUCAAGUUACUUCUGAUUGGCGACUCAGGGGUUGGAAAGUCUUGCCUUCUUCUCCGGUUUGCAUGGGACACAGCAGGCCAGGAAAGAUUUCGAACAAUCACCUCCAGUUAU | 0.406

Study 4
Target: RAF proto-oncogene serine/threonine-protein kinase (RAF1, Homo sapiens, UniProt P04049)
Read-out: enzyme activity
Mode: inhibitor
Concentration: 0.5 µM
Baseline: control
Structure (SMILES) | remaining activity [%]
O=C(CCCc1ccc(-c2ccccc2F)cc1)Nc1ccc(O)cc1 | 102
N#CC(C#N)=C(N)/C(C#N)=C/c1ccc(O)cc1 | 86.3
CCOC(=O)c1c(C)[nH]c(/C=C2\C(=O)Nc3ccccc32)c1C | 89.6
CC(C)[C@H](CO)Nc1nc(Nc2cc(N)cc(Cl)c2)c2ncn(C(C)C)c2n1 | 113
COc1cc2nccc(Oc3ccc(NC(=S)NC(=O)c4ccccc4C)cc3)c2cc1OC | 97
Nc1ncnc2n[nH]c(Nc3ccc(F)cc3)c12 | 96.7
Cn1c2ccccc2c2c3c(c4c5ccccc5n(CCC#N)c4c21)CNC3=O | 111
O=C1NC(=O)C(c2cn(CCCO)c3ncccc23)=C1c1cnccn1 | 100
Cc1ccc(NC(=O)c2ccc(CN3CCN(C)CC3)cc2)cc1Nc1nc(-c2cccnc2)cs1 | 77.5
Oc1ccc(-c2nc(-c3ccncc3)c(-c3ccc(F)cc3)[nH]2)cc1 | 25.8
O=C(O)c1ccc2c3c1cccc3c(=O)n1c3ccccc3nc21 | 97.5
COc1cc2ncnc(Nc3ccc(Oc4ccccc4)cc3)c2cc1OC | 88.9
O=S(=O)(c1cccc2cnccc12)N1CCCNCC1 | 98.3
Cn1sc(=O)n(Cc2ccccc2)c1=O | 97.2
COc1ccc(C(=O)Nc2sc3c(c2C(N)=O)CCCC3)cc1OC | 94.8
CN(C)c1ccc(C=C2C(=O)Nc3ccccc32)cc1 | 101
